Measurements of several laboratories.
Parts stem from different laboratories: compare values within a part only.

Study 1 — method: RNA Bind-n-Seq; molecule type: RNA; matrix: in vitro; concentration: not given; baseline: input RNA pool; reading: higher = stronger binding
Target: RING finger protein unkempt homolog, zinc fingers 1-6, GST-SBP tag (UNK, Homo sapiens, UniProt Q9C0B0, residues 30-357)
Chain of UniProt Q9C0B0 (30-357, looked up): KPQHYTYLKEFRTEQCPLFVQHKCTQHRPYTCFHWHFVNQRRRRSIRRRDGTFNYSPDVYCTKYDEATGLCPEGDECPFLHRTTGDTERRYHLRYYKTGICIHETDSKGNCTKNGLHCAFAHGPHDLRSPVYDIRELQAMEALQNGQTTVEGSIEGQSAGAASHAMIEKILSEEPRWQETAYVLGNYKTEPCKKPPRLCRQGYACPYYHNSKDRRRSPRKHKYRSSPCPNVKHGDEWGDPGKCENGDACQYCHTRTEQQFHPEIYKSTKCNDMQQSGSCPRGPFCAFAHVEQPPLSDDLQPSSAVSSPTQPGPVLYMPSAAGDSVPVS
Setting: RNA with constant flanks, human and mouse sites, ends assumed
| Sequence | bound/input enrichment |
| --- | --- |
| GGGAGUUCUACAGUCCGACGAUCUGUAGAUUUAUCCUAAAUUUGCUGUAGCAGUGGGGAAGAGGGACGGAUAUUUUUAAUUGAUUAGUGUUUUUUUCCUCACAUUUGACAUGACUGAUAACAGAUAAUUAAAAAAAGAGAAUACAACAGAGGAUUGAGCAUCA | 0.465 ratio |
| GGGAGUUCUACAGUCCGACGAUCGUUCAUUUCUUCAUUCUGUUUGUAUCUAGCGAAGCUGAAUGUCAGAAGCCCCUCUGUCCACACACAAAGUCUGCAUGUAUUGGUCGGUGGUCCUGCCCCUAAAGUCAAGCCCCUACAUCACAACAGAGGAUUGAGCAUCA | 0.201 ratio |
| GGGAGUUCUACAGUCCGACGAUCCGCAUCAAGAUCCAGCUAUGGGACACAGCAGGACAAGAACGAUUCAGAAAGAGCAUGGUUCAGCACUACUACAGAAAUGUACAUGCUGUUGUCUUCGUGUAUGAUAUGACCAACAUGGCUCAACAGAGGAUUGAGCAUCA | 0.11 ratio |
| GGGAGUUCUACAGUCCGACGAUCGAAGGUUUCUUUACCAACGGUUUGACUCUUGGAGCAAAGAAGUGUUCUGUGAUCAGAGAUAGCCUAUACGUUGAUGGUGACUGCACAAUGGACAUCCGGACAAAGAGUCAAGGUGGGGAGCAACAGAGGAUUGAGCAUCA | 0.405 ratio |
| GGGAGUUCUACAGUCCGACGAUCUAUGGUUAUGAUUACCAUAACUAUCGUGGUGGAUAUGAAGAUCCAUACUAUGGUUAUGAAGAUUUUCAAGUUGGAGCUAGAGGAAGGGGUGGUAGAGGAGCAAGGGGUGCUGCUCCAUCCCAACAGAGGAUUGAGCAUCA | 0.541 ratio |
| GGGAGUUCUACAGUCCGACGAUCAAAUUAUGUACUGCAAAAAUUUUUUUAAAUCUUCCGCCUUAAUACUUCAUUUUUGUUUUUAAUUUCUGAAUGGCCCAGGUCUGAGGCCUCCCUUUUUUUUGUCCCCCCAACUUGAUGUAUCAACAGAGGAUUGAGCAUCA | 3.6 ratio |
| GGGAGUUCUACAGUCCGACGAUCAGUUUGGGCUUUGGCUCUUACAUCAGUGAAGUAAAAGAAGUCUUACAAGAAUGCAAGACAGUAGCAUUAAAAAGAAGAAAGGCCAGUUCUCGUUUGGAAAACCUCGGCAUUCCUGAAGAGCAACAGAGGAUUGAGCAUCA | 0.718 ratio |
| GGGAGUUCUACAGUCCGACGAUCGGAGGAAUGCCUUUCGCAAUAAUGUAUCCAUUCCCUGAUUGAGGGUGGGUGGGUGGACCCAGGCUCCCUUUGCACACAGAGCAGCUACUUCUAAGCCAUAUCGACUGUUUUGCAGAGGAUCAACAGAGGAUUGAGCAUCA | 0.132 ratio |

Study 2 — method: RNA Bind-n-Seq; molecule type: RNA; matrix: in vitro; concentration: 365 nM; baseline: no-protein control; reading: higher = stronger binding
Target: RNA binding protein fox-1 homolog 2, RRM domain, GST-SBP tag (RBFOX2, Homo sapiens, UniProt O43251-10, residues 100-194)
Setting: natural RNA segment, single round, ends assumed
Target sequence (chain): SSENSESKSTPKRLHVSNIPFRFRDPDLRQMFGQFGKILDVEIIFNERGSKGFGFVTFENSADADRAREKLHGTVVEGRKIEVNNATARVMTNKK
| Sequence | RBNS enrichment (R) |
| --- | --- |
| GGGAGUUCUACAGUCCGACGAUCAUAAACCACUAUAUAUUUUAUGAAUUACAUGUGGUUUUAUAUACACACACACACACACACACACACACACACACACACUCUGACAUUUUAUUACAAGCUGCAUGUCCUGAUGGAAUUCUCGGGUGCCAA | 8.95 |
| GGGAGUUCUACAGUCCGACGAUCGGUGACCUCCGCAUCCCUCAGAGCUCAGAGGGUCCUCGCUGCCACCGGUCCCCCCCUAGCCCGUCAUCAGCCGGUGGCAGCUCCAUCUUCCAUUCCUGGUUUUAGGGCAGUGGAAUUCUCGGGUGCCAA | 1.07 |
| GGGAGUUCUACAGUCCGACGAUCGGCUGUGGCAGAUGCCAGCAGCUCUUACCAUCAGUCAGAGUCUUCAGGGUGUCAAGCUGUUUUCAUUUUUUAGGCAAAUAGAACAAAAGCCAUUUUGGUUCAUCCUGAUCUGGAAUUCUCGGGUGCCAA | 0.284 |
| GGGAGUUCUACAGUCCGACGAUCCCCUGUCUUCCUUUCUGGGCAAGCUCCCAUUUUAACUUUUCCCUGUUAAAAAUUGUACUGAUGUUUUAAACUCGUAACUAUACCACCCUUCUCACUGGUGUAUUUUGAAAUGGAAUUCUCGGGUGCCAA | 1.59 |
| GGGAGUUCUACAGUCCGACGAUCUUUAACAAACUAGCAUGAGGCUUUUUAUAUCUAAAUGCUACGUGAUAGACAAUUUCAGCUAGCCACAUAUUGUAUGUAUGAGAUUCAUAAAGACUUUCAAUCAUUUCAUUUGGAAUUCUCGGGUGCCAA | 0.538 |
| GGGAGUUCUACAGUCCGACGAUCAAUAAUGAAGAAAAGAAGGACAGACGCAAGGAAGAAAAGGAAUAAUAAAUAUGAAGUAAGAUUACAACAGAGCAGAACUUGCACCCACCAUUUUUUUUACCUGAUUUUUGUGGAAUUCUCGGGUGCCAA | 0.465 |
| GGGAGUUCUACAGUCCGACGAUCGUGCAAAUGUUAAGUUGGAUAUCACACUGUAUAUUUGCUGAGUCUCUUUUCCUAUAGGUUUGCAGAGCAUGUCUGCAGUUUCUCGGUUGUUAUAGAUUUCCUACCUAACCUGGAAUUCUCGGGUGCCAA | 2.95 |
| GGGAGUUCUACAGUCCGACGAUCUGAUAGUUUUGAAUGUUGCUUAAAUGUCUAUGAGGUUGCGAGUUUGUCAUUGUUACAUUCCAGUGUUUCUGCCUCUUGGCAUGCUUAAAGCACGGCUUACUUCAUCUGCUUGGAAUUCUCGGGUGCCAA | 0.997 |

Study 3 — method: protein binding microarray; molecule type: double-stranded DNA, one strand shown; matrix: in vitro; concentration: not given; baseline: not given; reading: higher = stronger binding
Target: Histone acetyltransferase KAT6A, both winged helices, GST fusion (KAT6A, Homo sapiens, UniProt Q92794, residues 1-181)
Setting: 8-mer, flanks averaged, mean of 2 arrays, mostly near background
Construct (chain): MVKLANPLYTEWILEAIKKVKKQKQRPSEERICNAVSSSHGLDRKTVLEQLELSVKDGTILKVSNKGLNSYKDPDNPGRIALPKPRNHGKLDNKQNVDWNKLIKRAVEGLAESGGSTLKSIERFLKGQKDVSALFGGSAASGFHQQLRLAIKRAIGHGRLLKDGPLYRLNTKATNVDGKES
| Sequence | E-score |
| --- | --- |
| CCGTACCC | 0.199 |
| CCAAGCAA | -0.152 |
| GGAACAAA | -0.176 |
| ACAGGACA | -0.0936 |
| AATTCGCT | -0.0258 |
| CACAATGC | 0.0649 |
| CAAGCCAG | -0.254 |
| GTCGGAAA | 0.161 |

Other studies, line by line
| Structure (SMILES) | species | matrix | concentration | time | endpoint | value |
| --- | --- | --- | --- | --- | --- | --- |
| CC(C)(C)Nc1nc(Cl)nc(NC(C)(C)CO)n1 | mouse | microsomes or S9 | 2 µM | 0.5 h | remaining compound | 26.4% |

Repeated from above (other studies, line by line):
| Structure (SMILES) | species | matrix | concentration | time | endpoint | value |
| --- | --- | --- | --- | --- | --- | --- |
| CC(C)(C)Nc1nc(Cl)nc(NC(C)(C)CO)n1 | mouse | microsomes or S9 | 2 µM | 0.5 h | remaining compound | 26.4% |
